Measurements from different studies.
Compare with care: the assays were run in different laboratories. Values joined by “and” are separate records of one study, mostly repeats; a detail may differ. ± gives the spread as reported.

O=c1c(O)c(-c2ccc(O)cc2)oc2cc(O)cc(O)c12
plasma concentration (human plasma; mean, both sexes): 102000 nM

Cc1ccc(Sc2ccccc2N2CCNCC2)c(C)c1
participants with TEAE (measured: abdominal pain; healthy adult women; oral, 5 mg daily, 12 days): 0%

Cc1cc(NC2CCN(C(=O)OC3CCN(C(=O)/C=C/CN(C)C)C3)CC2)n2ncc(C(C)C)c2n1 (centres unmarked)
patients with Ascites (patients with advanced solid tumours; dose not given, QD arm, grade 3 or higher): 2%

Cc1cc(-c2nccc3c2ccn3CC(=O)Nc2ccc(-c3cnccn3)cn2)ccn1
subjects with any serious TEAE (human; SAD part, single 40 mg dose): 0%

CO[C@H]1C[C@@H]2CC[C@@H](C)[C@@](O)(O2)C(=O)C(=O)N2CCCC[C@H]2C(=O)O[C@H]([C@H](C)C[C@@H]2CC[C@@H](O)[C@H](OC)C2)CC(=O)[C@H](C)/C=C(\C)[C@@H](O)[C@@H](OC)C(=O)[C@H](C)C[C@H](C)/C=C/C=C/C=C/1C
rectal temperature (healthy adult horses; intravenous, 0.06 mg/kg, 2 h): 37.3 ± 0.3 °C

CCOc1c([C@H](C)n2nc(C)c3c(N)ncnc32)cc(Cl)c(F)c1[C@@H]1CNC(=O)C1
amount excreted in urine (Ae) (measured: unchanged compound; Japanese patients, urine; oral, dose not given, 0-8 h, cycle 1 day 15): 4490 ± 1840 nmol

O=C(NC[C@H]1CN(c2ccc(N3CCOCC3=O)cc2)C(=O)O1)c1ccc(Cl)s1
typical volume of distribution (Phoenix NLME, model A; human, atrial fibrillation patients, plasma; oral, dose not given): 45.5 L

C[Si](C)(C)O[Si](C)(C)C
log KAW (regression; 25 °C): 2.49

O=C(O)c1ccc(OS(=O)(=O)O)c(O)c1
plasma concentration (human plasma; mean): 125 nM

CC1CCNc2c(C(=O)NC/C=C/S(C)(=O)=O)cccc21 (centres unmarked)
serum TBILI (uninfected mouse, serum; 300 mg/kg): 0.43 mg/dL and 0.38 mg/dL

CN(C(=O)n1cnc(-c2cccnc2)c1)C1CCCCC1
concentration (Wistar rat, hippocampus; oral, 10 mg/kg/day of BIA 10-2474, 4 h, repeated 5 days): 36 ± 7 ng/g

O=c1cc(-c2ccccc2)oc2ccccc12
plasma concentration (human plasma; median, both sexes): 1290 nM

[H]/N=C(/N)N[C@H]1[C@H](O)[C@@H](O)[C@H](O[C@@H]2O[C@@H](C)[C@](O)(C=O)[C@H]2O[C@@H]2O[C@@H](CO)[C@H](O)[C@@H](O)[C@@H]2NC)[C@@H](N/C(N)=N\[H])[C@@H]1O
amount permeated (starch gel membrane permeability; Gram-negative envelope surrogate; 200 µM, 10 min, pH 7.4): 0.28 nmol

CC[C@@](N)(c1cnc(C(F)(F)F)c(Cl)c1)c1c2ncn(C3CC3)c(=O)c2nn1C
CL (rat Sprague-Dawley male, plasma; intravenous, 1 mg/kg): 0.466 ± 0.059 mL/min/kg

C[C@H]1CN(C(=O)CC#N)[C@]12CCN(c1ncnc3[nH]ccc13)C2
t1/2 (healthy adults, plasma; oral, 12 mg single dose, geometric mean): 2.8 h

COc1ccc2[nH]c([S+]([O-])Cc3ncc(C)c(OC)c3C)nc2c1 (centres unmarked)
R/S ratio change (human male, plasma and dried plasma spots; oral, dose not given, 4 h, added: fluvoxamine plus voriconazole; reference: inhibited over baseline): 1.65

CN1CCC[C@H](CN2c3ccccc3Sc3ccccc32)C1.Cl
Tmax (Wistar rat female, heart; oral, 16 mg/kg): 6 h

N#Cc1ccc2c(c1)[C@H]1CCCN(C(=O)c3ccc4[nH]cnc4c3)[C@H]1C2
median ACTH level (human; 20 mg, end of trial): 5.8 pmol/L

CCc1cc(C(=O)NC)c2nccc(N3CCc4c(cc(Cn5ccnc5)cc4-c4cn(C)nc4C(F)(F)F)C3=O)c2c1
blood HGB (Sprague Dawley rats; oral, 50 mg/kg once daily, 7 days): 136 ± 2.83 g/L

CCCCCNC(=O)N1CCC(CN(Cc2ccc(Cl)cc2)Cc2ccc([N+](=O)[O-])s2)C1 (centres unmarked)
haemoglobin (C57BL/6 mice; 100 mg/kg twice daily, 7 days): 11.3 ± 1.2 g/dL

CO[C@H]1/C=C/O[C@@]2(C)Oc3c(C)c(O)c4c(O)c(c(/C=N/N5CCN(C)CC5)c(O)c4c3C2=O)NC(=O)/C(C)=C\C=C\[C@H](C)[C@H](O)[C@@H](C)[C@@H](O)[C@@H](C)[C@H](OC(C)=O)[C@@H]1C
amount permeated (starch gel membrane permeability; Gram-negative envelope surrogate; 200 µM, 20 min, pH 7.4): 0.7 nmol

CC(C)c1nc(N(C)S(C)(=O)=O)nc(-c2ccc(F)cc2)c1/C=C/[C@@H](O)C[C@@H](O)CC(=O)O
peripheral volume of distribution (population pharmacokinetic model; people living with HIV; oral, dose not given, bootstrap median): 1600 L

CC[C@H](C)[C@@H]1NC(=O)[C@H](CCCNC(=N)N)NC(=O)[C@H](CC(=O)O)NC(=O)[C@H](CC(C)C)NC(=O)[C@H](CCCCN)NC(=O)[C@H](CC(C)C)NC(=O)CNC(=O)[C@H](Cc2ccccc2)NC(=O)[C@@H](NC(=O)CNC(=O)[C@H](CCCCN)NC(=O)[C@H](CO)NC(=O)[C@H](CC(C)C)NC(=O)CNC(=O)[C@H](CCCCN)NC(=O)[C@H](CCCCN)NC(=O)[C@H](CC(N)=O)NC(=O)[C@H](C)NC(=O)CNC(=O)[C@H](CCCCN)NC(=O)[C@H](Cc2ccc(O)cc2)NC(=O)[C@H](CCCCN)NC(=O)[C@H](CCCNC(=N)N)NC(=O)[C@H](C)NC(=O)[C@H](CC(N)=O)NC(=O)[C@@H]2CCCN2C(=O)[C@H](Cc2c[nH]cn2)NC(=O)[C@H](CCC(=O)O)NC(=O)[C@H](CCC(N)=O)NC(=O)CNC(=O)[C@@H]2CCCN2)CSSC[C@@H](C(=O)O)NC(=O)CNC(=O)[C@H](CC(C)C)NC(=O)CNC(=O)[C@H](CO)NC(=O)[C@H](CCSC)NC(=O)[C@H](CO)NC(=O)CNC1=O
AUC(0-60 min) (human, plasma; dose not given): 255 ng·h/mL

CCOC(=O)[C@@]12C[C@@H]1[C@@H](n1ccc3c(NC)nc(C#Cc4ccc(Cl)s4)nc31)[C@H](O)[C@@H]2O
AUC extrapolated share (Sprague-Dawley rat, male, plasma; intravenous, 0.5 mg/kg): 11%

CC(C)(C(=O)N1CCOc2c(C#N)cncc2C1)C(F)F
subjects with adverse event (measured: Dyspepsia; human; oral, 10 mg once daily, 14 days, multiple ascending dose): 0%

Cn1cncc1-c1c(F)cncc1NC(=O)c1c(N)nn2cc(F)cnc12
peripheral volume V2 (two-compartment PK-TGI model; xenograft-bearing mice, plasma; dose not given): 0.0102 L/kg

Cc1c(Cl)c(C)[n+]([O-])c(Cl)c1-c1noc(-c2cc(O)c(O)c([N+](=O)[O-])c2)n1
TEAE incidence (healthy Caucasian subjects; oral, 50 mg, 10 days): 40%

COc1cc2c3c(n(CCCN4CCOCC4)c(=O)c2cc1OC)-c1cc2c(cc1C3=O)OCO2
clearance (Fischer 344 rat, female, plasma; intravenous bolus, 24 mg/m^2): 29 L/h/m²

COc1cccc(OC)c1-c1cc(C(=O)NC2(C(=O)O)C3CC4CC(C3)CC2C4)nn1-c1ccc(C(=O)N(C)CCCN(C)CCCN(C)C(=O)CN2CCN(CC(=O)[O-])CCN(CC(=O)[O-])CCN(CC(=O)[O-])CC2)cc1C(C)C.[177Lu+3] (centres unmarked)
tissue uptake (mouse HT-29 xenograft, small intestine; 24 h post injection, biodistribution): 0.32 %ID/g

CCN1CCN(Cc2ccc(NC(=O)c3ccc(C)c(NC(=O)c4cncc(-c5cccs5)c4)c3)cc2C(F)(F)F)CC1
mean plasma concentration (LC-MS/MS; C57BL/6 mouse, plasma; intraperitoneal, 10 mg/kg single dose, 0.25 h): 487 ng/mL

NC[C@@]1(CC(=O)O)[C@@H]2CC[C@H]3C[C@@H]2[C@@H]1C3
unbound apparent clearance (human, moderate renal impairment, plasma; geometric mean): 5.7 L/h

CCc1nc(C(N)=O)c(Nc2ccc(N3CCC(N4CCN(C)CC4)CC3)c(OC)c2)nc1NC1CCOCC1
accumulation ratio (AUC) (Japanese patients, plasma; oral, 80 mg, cycle 1 day 28, multiple doses, mean; reference: single dose): 5.97

O=C1CC[C@H](N2Cc3cc(N4CCN(CC5CCN(c6ccc([C@@H]7c8ccc(O)cc8CC[C@@H]7c7ccccc7)cc6)CC5)CC4)ccc3C2=O)C(=O)N1
dose excreted (radiolabelled mass balance; Sprague-Dawley rat, female, bile duct-cannulated, bile; oral, 20 mg/kg, up to 72 h): 10.1%

OC[C@H]1O[C@@H](c2ccc(F)c(Cc3cc4ccccc4s3)c2)[C@H](O)[C@@H](O)[C@@H]1O
hypoglycaemia-related adverse event (Japanese patients, type 1 diabetes; oral, 25 mg/day, onset day 12; reference: patients): 1%

O=C(O)CCCOc1ccc([18F])cc1-c1cc(-c2ccccc2C(F)(F)F)n(-c2ccccc2)n1
radioactivity uptake (gamma counting; male ddY mice, lung; intravenous, 2.1 MBq, 60 min): 0.37 ± 0.04 SUV

COc1cc(C(=O)NC2CCN(C)CC2)c(F)cc1Nc1ncc(C(F)(F)F)c(Oc2cccc3c2C(=O)N(C)C3)n1
dose-normalised AUC(0-inf) (human patients, plasma; oral, 50 mg single dose, geometric mean): 106 nmol·h/L per mg

CCc1c(-c2ccccc2)c(-c2ccccc2)nn1-c1ccccc1-c1cccc(OCC(=O)O)c1
concentration (Sprague-Dawley rat, fat; oral, 10 mg/kg, 8 h): 1020 ng/g and 1220 ng/g

CN(C)c1cc(NC(=O)CNC(C)(C)C)c(O)c2c1C[C@H]1C[C@H]3[C@H](N(C)C)C(O)=C(C(N)=O)C(=O)[C@@]3(O)C(O)=C1C2=O
amount permeated (starch gel membrane permeability; Gram-negative envelope surrogate; 200 µM, 20 min, pH 7.4): 0.9 nmol

O=C(O)[C@H]1O[C@@H](Oc2ccc(/C=C\c3cc(O)cc(O)c3)cc2)[C@H](O)[C@@H](O)[C@@H]1O
samples above LOQ (human, plasma): 100%

CC(C)C[C@H](NC(=O)[C@H](CCc1ccccc1)NC(=O)CN1CCOCC1)C(=O)N[C@@H](Cc1ccccc1)C(=O)N[C@@H](CC(C)C)C(=O)[C@@]1(C)CO1
peripheral volume of distribution (population PK, two-compartment model; adult relapsed/refractory DLBCL patients, plasma; intravenous infusion, dose not given, added: R-ICE): 89.6 L

CNc1ccc(-c2nc3ccc(O)cc3s2)cc1 [carbon-11 labelled]
SUV (microPET/CT imaging; APP/PS1 mouse, AD model, heart; intravenous, 10 min): 0.911 ± 0.582

Cn1cc(Nc2nccc(-c3ccc4c(c3)CN(C3COC3)CC[C@H]4NC(=O)c3cn(C(C)(C)C)nn3)n2)cn1
NK cell count change (human, whole blood; 150 mg twice daily, day 14; reference: pre-dose baseline): -36.8%

O=C(O)CCc1ccccc1O
plasma concentration (human plasma; mean): 2720 nM

CNC(=O)c1ccc(-c2cnc3ncc(Cc4ccc5ncccc5c4)n3n2)cc1F
patients with adverse event (measured: Dizziness, all grades; gastric cancer patients; oral, 600 mg twice daily, expansion cohort, any causality): 0%

Cc1cc(Nc2cc3ncccc3c(N[C@@H]3C[C@H]4CC[C@@H](C3)N4CCC#N)n2)n[nH]1
AUC(0-24) (human; 100 mg, day 1): 13.2 ng·h/mL

Cc1c(-c2ccc(N3CCc4cccc(C(=O)Nc5nc6ccccc6s5)c4C3)nc2C(=O)O)cnn1CC12CC3(C)CC(C)(C1)CC(OCCNCC[C@H](O)CO)(C3)C2
mean arterial pressure change (beagle dog, anaesthetised; intravenous infusion, 0.1 mg/kg/min, 90 min; reference: baseline): -1 mmHg

CN[C@H](CC(C)C)C(=O)N[C@H]1C(=O)N[C@@H](CC(N)=O)C(=O)N[C@H]2C(=O)N[C@H]3C(=O)N[C@H](C(=O)N[C@H](C(=O)O)c4cc(O)cc(O)c4-c4cc3ccc4O)[C@H](O)c3ccc(c(Cl)c3)Oc3cc2cc(c3O[C@@H]2O[C@H](CO)[C@@H](O)[C@H](O)[C@H]2O[C@H]2C[C@](C)(N)[C@H](O)[C@H](C)O2)Oc2ccc(cc2Cl)[C@H]1O
elimination rate constant (C57BL/6N mouse H2, faeces; po, 0.5 mL, 20 mg/mL solution): 0.12 h⁻¹

O=C(O)CCC(=O)O.[2H]C([2H])([2H])Oc1cc(C)c2[nH]ccc2c1CN1CC[C@@H](C2CC2)C[C@H]1c1ccc(C(=O)O)cc1
subjects with elevated cholesterol TEAE (multiple ascending dose; healthy Chinese subjects; 300 mg once daily): 0%

CCN1/C(=C/C(C)=O)Sc2ccc(F)cc21
systolic blood pressure (cynomolgus monkey; oral, 10 mg/kg, 2 h post-dose): 112 ± 7 mmHg

O=C(COc1ccc(Cl)cc1)NC12CC(c3nnc([C@H]4C[C@@H](OC(F)(F)F)C4)o3)(C1)C2
postural dizziness participants (human both sexes; oral, 800 mg single dose): 16.7%

O=C(O)[C@H]1O[C@@H](Oc2cc(O)cc(/C=C\c3ccc(O)cc3)c2)[C@H](O)[C@@H](O)[C@@H]1O
samples above LOQ (human, plasma): 100%

Cc1cc(C)c(CNC(=O)c2cc(Cl)c3c(c2C)O[C@@](C)([C@H]2CC[C@H](N(C)C)CC2)O3)c(=O)[nH]1
TEAE incidence (healthy Japanese male volunteers; oral, dose not given, added: itraconazole): 12.5%

O=C1CC[C@H](Cc2ccc(OS(=O)(=O)O)c(O)c2)O1
plasma concentration (human plasma; median): 1080 nM

Cc1c2oc3c(C)ccc(C(=O)N[C@@H]4C(=O)N[C@H](C(C)C)C(=O)N5CCC[C@H]5C(=O)N(C)CC(=O)N(C)[C@@H](C(C)C)C(=O)O[C@@H]4C)c3nc-2c(C(=O)N[C@@H]2C(=O)N[C@H](C(C)C)C(=O)N3CCC[C@H]3C(=O)N(C)CC(=O)N(C)[C@@H](C(C)C)C(=O)O[C@@H]2C)c(N)c1=O
median plasma concentration (children with cancer, plasma; dose not given, 15 min): 24.4 µg/L

CCC[C@@H]1C[C@@H](C(=O)N[C@@H]([C@H]2O[C@H](SC)[C@H](O)[C@@H](O)[C@H]2O)[C@@H](C)O)N(C)C1
amount permeated (starch gel membrane permeability; Gram-negative envelope surrogate; 200 µM, 10 min, pH 7.4): 0.23 nmol

Cn1c(=O)c2c(ncn2C)n(C)c1=O
samples above LOQ (human, both sexes, plasma): 100%
